Assay results from different studies.
Compare with care: the assays were run in different laboratories. ± gives the spread as reported.

Compound | test | test system | conditions | how to read | quantity | result
CCCC[C@H](NC(=O)CNC(=O)CNC(=O)c1ccc(NN)nc1)C(=O)N[C@H]1CC(=O)NCCCC[C@@H](C(N)=O)NC(=O)[C@H](Cc2c[nH]c3ccccc23)NC(=O)[C@H](CCCNC(=N)N)NC(=O)[C@@H](Cc2ccccc2)NC(=O)[C@H](Cc2c[nH]cn2)NC1=O [technetium-99m labelled] |  | C57 mice bearing B16/F1 melanoma, urine | intravenous, dose not given, 2 h post-injection |  | urinary excretion | 91.3 ± 1.96 % injected dose
CSCC[C@H](NC(=O)[C@H](CC(C)C)NC(=O)[C@H](Cc1c[nH]cn1)NC(=O)CNC(=O)[C@@H](NC(=O)[C@H](C)NC(=O)[C@H](Cc1c[nH]c2ccccc12)NC(=O)[C@H](CCC(N)=O)NC(=O)CCCCCCCNC(=O)CCC(=O)Nc1ccc(CNC23CNCCNCC(N)(CNCCNC2)CNCCNC3)cc1)C(C)C)C(N)=O [copper-64 labelled] |  | female SCID mice, PC-3 xenograft, lung | intravenous, 0.6 MBq, 4 h |  | tissue uptake | 0.679 ± 0.028 %ID/g
CCCC[C@H](NC(=O)CCCCCCCNC(=O)c1ccc(NN)nc1)C(=O)N[C@H]1CC(=O)NCCCC[C@@H](C(N)=O)NC(=O)[C@H](Cc2c[nH]c3ccccc23)NC(=O)[C@H](CCCNC(=N)N)NC(=O)[C@@H](Cc2ccccc2)NC(=O)[C@H](Cc2c[nH]cn2)NC1=O [technetium-99m labelled] |  | C57 mouse, B16/F1 melanoma, brain | intravenous, 24 h |  | uptake | 0.01 ± 0.01 %ID/g
N=C(N)NCCC[C@@H]1NC(=O)[C@H](CCCCNC(=O)CCOCCOCCOCCOCCNC(=O)CN2CCN(CC(=O)O)CCN(CC(=O)O)CCN(CC(=O)O)CC2)NC(=O)[C@@H](Cc2ccccc2)NC(=O)[C@H](CC(=O)O)NC(=O)CNC1=O [indium-111 labelled] |  | athymic nude mice, female, U-87 MG glioma xenograft, tumour and heart | intravenous, 1 h | baseline: tumour over heart | tumour to tissue ratio | 6.36 ± 1.25
C[C@H](NC(=O)CNC(=O)[C@H](CCC(=O)O)NC(=O)[C@H](CCC(=O)O)NC(=O)[C@H](CC(=O)O)NC(=O)[C@@H]1CCCN1C(=O)[C@H](Cc1ccccc1)NC(=O)[C@H](CS)NC(=O)[C@H](Cc1ccc(O)cc1)NC(=O)CCCNC(=O)CNC(=O)CNC(=O)[C@@H](C)NC(=O)CN)C(=O)N[C@@H](CS)C(=O)N[C@@H](Cc1ccc(O)cc1)C(N)=O [technetium-99m labelled] | radio-HPLC | human serum | 24 h, 37 °C, serum mix 1:10 v/v |  | radiochemical purity | 86 ± 1.34%
N=C(N)NCCC[C@@H]1NC(=O)[C@H](CCCCNC(=O)CC[C@H](NC(=O)CCOCCOCCOCCOCCNC(=O)CC[C@H](NC(=O)CN2CCN(CC(=O)O)CCN(CC(=O)O)CCN(CC(=O)O)CC2)C(=O)NCCOCCOCCOCCOCCC(=O)N[C@@H](CCC(=O)NCCCC[C@@H]2NC(=O)[C@@H](Cc3ccccc3)NC(=O)[C@H](CC(=O)O)NC(=O)CNC(=O)[C@H](CCCNC(=N)N)NC2=O)C(=O)NCCCC[C@@H]2NC(=O)[C@@H](Cc3ccccc3)NC(=O)[C@H](CC(=O)O)NC(=O)CNC(=O)[C@H](CCCNC(=N)N)NC2=O)C(=O)NCCCC[C@@H]2NC(=O)[C@@H](Cc3ccccc3)NC(=O)[C@H](CC(=O)O)NC(=O)CNC(=O)[C@H](CCCNC(=N)N)NC2=O)NC(=O)[C@@H](Cc2ccccc2)NC(=O)[C@H](CC(=O)O)NC(=O)CNC1=O [indium-111 labelled] |  | female athymic nude mice, muscle | intravenous, 3 µCi, 72 h, U-87 MG glioma xenograft |  | tissue uptake | 0.12 ± 0.04 %ID/g
CSCC[C@H](NC(=O)[C@H](CC(C)C)NC(=O)[C@H](Cc1c[nH]cn1)NC(=O)CNC(=O)[C@@H](NC(=O)[C@H](C)NC(=O)[C@H](Cc1c[nH]c2ccccc12)NC(=O)[C@H](CCC(N)=O)NC(=O)CCCCCNC(=O)CNC(=O)CNC(=O)CNC(=O)CSC(C)=O)C(C)C)C(N)=O [technetium-99m labelled] |  | Swiss mouse, pancreas | intravenous, 18.5 MBq, 90 min |  | tissue uptake | 1.67 ± 0.33 %ID/g
N=C(N)NCCC[C@@H]1NC(=O)[C@H](CCCCNC(=O)CNC(=O)CNC(=O)CNC(=O)CC[C@H](NC(=O)CCOCCOCCOCCOCCNC(=O)CC[C@H](NC(=O)CN2CCN(CC(=O)O)CCN(CC(=O)O)CCN(CC(=O)O)CC2)C(=O)NCCOCCOCCOCCOCCC(=O)N[C@@H](CCC(=O)NCC(=O)NCC(=O)NCC(=O)NCCCC[C@@H]2NC(=O)[C@@H](Cc3ccccc3)NC(=O)[C@H](CC(=O)O)NC(=O)CNC(=O)[C@H](CCCNC(=N)N)NC2=O)C(=O)NCC(=O)NCC(=O)NCC(=O)NCCCC[C@@H]2NC(=O)[C@@H](Cc3ccccc3)NC(=O)[C@H](CC(=O)O)NC(=O)CNC(=O)[C@H](CCCNC(=N)N)NC2=O)C(=O)NCC(=O)NCC(=O)NCC(=O)NCCCC[C@@H]2NC(=O)[C@@H](Cc3ccccc3)NC(=O)[C@H](CC(=O)O)NC(=O)CNC(=O)[C@H](CCCNC(=N)N)NC2=O)NC(=O)[C@@H](Cc2ccccc2)NC(=O)[C@H](CC(=O)O)NC(=O)CNC1=O [indium-111 labelled] |  | female athymic nude mice, blood | intravenous, 3 µCi, 72 h, U-87 MG glioma xenograft |  | tissue uptake | 0.03 ± 0.01 %ID/g
COc1cc(/C=C(\C#N)C(=O)Nc2nnc(C(F)(F)F)s2)ccc1OC(=O)N1CCN(C(=O)CCCC(=O)NCCCC[C@@H]2NC(=O)[C@@H](Cc3ccc(O)cc3)NC(=O)[C@H](CC(=O)O)NC(=O)CNC(=O)[C@H](CCCNC(=N)N)NC2=O)CC1 |  | phosphate buffer | pH 7.4, 37 °C |  | chemical stability | stable

A few entries again:
Compound | test | test system | conditions | how to read | quantity | result
COc1cc(/C=C(\C#N)C(=O)Nc2nnc(C(F)(F)F)s2)ccc1OC(=O)N1CCN(C(=O)CCCC(=O)NCCCC[C@@H]2NC(=O)[C@@H](Cc3ccc(O)cc3)NC(=O)[C@H](CC(=O)O)NC(=O)CNC(=O)[C@H](CCCNC(=N)N)NC2=O)CC1 |  | phosphate buffer | pH 7.4, 37 °C |  | chemical stability | stable
